Measured values from different studies.
Lines come from different studies, so protocols differ. Numbers after ± are the reported error.
KPC-2: KPC-2 (Klebsiella pneumoniae, UniProt Q9F663)
MPO mature: MPO mature (Homo sapiens, UniProt P05164)
PPIA: PPIA (Homo sapiens, UniProt P62937)
T1: EutB/EutC (Salmonella enterica serovar Typhimurium); chain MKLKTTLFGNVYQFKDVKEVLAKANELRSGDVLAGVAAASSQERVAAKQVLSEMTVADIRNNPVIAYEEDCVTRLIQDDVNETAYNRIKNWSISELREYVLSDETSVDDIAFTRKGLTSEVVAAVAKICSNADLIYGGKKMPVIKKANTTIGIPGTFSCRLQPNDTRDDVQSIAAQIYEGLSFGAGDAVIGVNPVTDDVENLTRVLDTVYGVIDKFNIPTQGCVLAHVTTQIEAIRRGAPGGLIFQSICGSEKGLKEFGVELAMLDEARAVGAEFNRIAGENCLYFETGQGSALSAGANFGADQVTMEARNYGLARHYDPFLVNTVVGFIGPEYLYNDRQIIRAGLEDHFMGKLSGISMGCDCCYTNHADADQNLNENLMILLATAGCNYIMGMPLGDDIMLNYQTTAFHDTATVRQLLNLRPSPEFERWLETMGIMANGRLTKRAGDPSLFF; chain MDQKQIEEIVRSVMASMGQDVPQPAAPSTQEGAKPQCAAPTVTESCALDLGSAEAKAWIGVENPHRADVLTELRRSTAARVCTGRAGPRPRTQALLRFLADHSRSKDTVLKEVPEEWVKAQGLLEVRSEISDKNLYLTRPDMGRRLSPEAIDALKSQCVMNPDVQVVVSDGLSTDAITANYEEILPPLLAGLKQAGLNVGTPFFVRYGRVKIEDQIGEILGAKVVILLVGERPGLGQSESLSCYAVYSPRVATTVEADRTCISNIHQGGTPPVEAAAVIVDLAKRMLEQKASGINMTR
B1: eutC (Salmonella enterica, UniProt P19265); chain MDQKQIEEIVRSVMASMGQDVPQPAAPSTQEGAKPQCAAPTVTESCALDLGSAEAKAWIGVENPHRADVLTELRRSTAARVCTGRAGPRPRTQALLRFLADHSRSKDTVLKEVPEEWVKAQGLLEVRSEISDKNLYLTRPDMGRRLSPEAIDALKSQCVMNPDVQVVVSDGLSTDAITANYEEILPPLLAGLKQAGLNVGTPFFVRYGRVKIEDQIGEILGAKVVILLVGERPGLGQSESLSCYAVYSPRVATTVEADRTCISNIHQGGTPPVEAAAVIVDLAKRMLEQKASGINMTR
B2: PduA 2-94 (Salmonella enterica, UniProt P0A1C7); chain QQEALGMVETKGLTAAIEAADAMVKSANVMLVGYEKIGSGLVTVIVRGDVGAVKAATDAGAAAARNVGEVKAVHVIPRPHTDVEKILPKGISQ

| Substance | target or system | test | test system | setting | how to read | endpoint | result |
| --- | --- | --- | --- | --- | --- | --- | --- |
| CDYYAYATFGFTSAAADAKVC (MBP/BLIP cyclic peptide (Streptomyces clavuligerus); cyclic) | KPC-2 | SPR | peptide | – | – | koff | 0.00088 s⁻¹ |
| SPIN mature (Staphylococcus aureus) | MPO mature | MPO peroxidase activity, inhibitor | – | L49A variant | – | IC50 | 7.4 nM |
| CDGYSSTGFYRGSAHLWFC (MBP/BLIP cyclic peptide (Streptomyces clavuligerus); cyclic) | KPC-2 | SPR | peptide | – | – | koff | 0.0016 s⁻¹ |
| NS5A mature (hepatitis C virus, UniProt Q9WMX2) | PPIA | luciferase, two-hybrid | CHO | – | relative to: VP16 alone, higher = stronger interaction | specific window | 2.9 fold |
| B1 (eutC) | eutA (Salmonella enterica, UniProt Q9ZFV2) | cross-linking | – | – | – | binding | binds |
| B2 (PduA 2-94) | PduB (Salmonella enterica Typhimurium LT2, UniProt P37449) | cross-linking | – | – | – | binding | binds |
| CAIAGGYFHGLALKGC (BLIP-II cyclic peptide (Streptomyces); C-terminal amide, cyclic, disulfide) | KPC-2 | BLI | peptide | – | – | koff | 0.00029 s⁻¹ |
| SPIN mature Y75A (Staphylococcus aureus) | MPO mature | MPO peroxidase activity, inhibitor | – | L49A variant | – | IC50 | 9.6 nM |
| gag CA CTD fragment I190V (Rous sarcoma virus) | itself | ITC | – | – | – | Kd | 40000 ± 10000 nM |
| NS5A fragment (hepatitis C virus) | PPIA | AlphaScreen | – | – | higher = stronger interaction | AlphaLISA signal | > 13000 RLU |
| SPIN mature E50A (Staphylococcus aureus) | MPO mature | MPO peroxidase activity, inhibitor | – | L49A variant | – | IC50 | 8.9 nM |
| PR2 C-terminal nonapeptide fragment (HIV-2) | HIV-2 protease mature (HIV-2) | hydrolysis of chromogenic substrate, competitive inhibitor, enzyme inhibition kinetics | – | – | – | Ki | 17000 nM |
| nlpI mature soluble domain (Escherichia coli, UniProt P0AFB1) | prc K477A (Escherichia coli, UniProt P23865) | competition, SEC | – | – | – | binding | binds |
| eutA (Salmonella enterica, UniProt Q9ZFV2) | T1, EutB/EutC (Salmonella enterica serovar Typhimurium) | SEC | – | – | – | binding | binds |
| CHLWFTDGVLC (BLIP cyclic peptide (Streptomyces clavuligerus); C-terminal amide, cyclic, disulfide) | KPC-2 | BLI | peptide | – | – | Kd | 410 ± 7 nM |
| AGAENCETGGSFGDSIHCRGHAAGDYYAY (bli 61-89 (Streptomyces clavuligerus, UniProt P35804)) | TEM-1 β-lactamase mature (UniProt P62593) | BLI | peptide | – | – | Kd | 1200 nM |
| CWSEYYPAYC (BLIP cyclic peptide (Streptomyces clavuligerus); C-terminal amide, cyclic, disulfide) | KPC-2 | BLI | peptide | – | – | koff | 0.00035 s⁻¹ |
| insulin human | – | measured: ASS1 mRNA | uninfected mouse, brain | i.p., dose not given | relative to: PBS | fold change | 0.979 |

A few entries again:
| Substance | target or system | test | test system | setting | how to read | endpoint | result |
| --- | --- | --- | --- | --- | --- | --- | --- |
| SPIN mature (Staphylococcus aureus) | MPO mature | MPO peroxidase activity, inhibitor | – | L49A variant | – | IC50 | 7.4 nM |
| CDGYSSTGFYRGSAHLWFC (MBP/BLIP cyclic peptide (Streptomyces clavuligerus); cyclic) | KPC-2 | SPR | peptide | – | – | koff | 0.0016 s⁻¹ |
| NS5A mature (hepatitis C virus, UniProt Q9WMX2) | PPIA | luciferase, two-hybrid | CHO | – | relative to: VP16 alone, higher = stronger interaction | specific window | 2.9 fold |
